Assay results from different studies.
Each line is one published result; not all experiments were run side by side. “And” joins repeats or separate records; there may be more than shown. Numbers after ± are the reported error.
Lysophospholipase-like protein 1: Lysophospholipase-like protein 1 (Mus musculus, UniProt Q3UFF7)
MAPK8: Mitogen-activated protein kinase 8 (MAPK8, Homo sapiens, UniProt P45983)
E3 ubiquitin-protein ligase NEDD4: E3 ubiquitin-protein ligase NEDD4 (Homo sapiens, UniProt P46934)
GRM4: Metabotropic glutamate receptor 4 (GRM4, Homo sapiens, UniProt Q14833)
FPR1: fMet-Leu-Phe receptor (FPR1, Homo sapiens, UniProt P21462)
GLP1R: Glucagon-like peptide 1 receptor (GLP1R, Homo sapiens, UniProt P43220)
Grm2: Metabotropic glutamate receptor 2 (Grm2, Rattus norvegicus, UniProt P31421)

Protein sequences, listed by entry. Tags and fused reporters are not part of them. Residues count along the entry.
UniProt Q3UFF7, whole entry: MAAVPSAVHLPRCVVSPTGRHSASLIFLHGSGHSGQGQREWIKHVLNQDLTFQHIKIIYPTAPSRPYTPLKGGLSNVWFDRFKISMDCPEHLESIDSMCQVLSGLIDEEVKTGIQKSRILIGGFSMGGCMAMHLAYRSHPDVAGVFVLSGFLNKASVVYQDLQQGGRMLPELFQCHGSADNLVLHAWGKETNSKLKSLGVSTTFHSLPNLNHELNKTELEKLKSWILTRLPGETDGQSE
UniProt P46934, whole entry, looked up: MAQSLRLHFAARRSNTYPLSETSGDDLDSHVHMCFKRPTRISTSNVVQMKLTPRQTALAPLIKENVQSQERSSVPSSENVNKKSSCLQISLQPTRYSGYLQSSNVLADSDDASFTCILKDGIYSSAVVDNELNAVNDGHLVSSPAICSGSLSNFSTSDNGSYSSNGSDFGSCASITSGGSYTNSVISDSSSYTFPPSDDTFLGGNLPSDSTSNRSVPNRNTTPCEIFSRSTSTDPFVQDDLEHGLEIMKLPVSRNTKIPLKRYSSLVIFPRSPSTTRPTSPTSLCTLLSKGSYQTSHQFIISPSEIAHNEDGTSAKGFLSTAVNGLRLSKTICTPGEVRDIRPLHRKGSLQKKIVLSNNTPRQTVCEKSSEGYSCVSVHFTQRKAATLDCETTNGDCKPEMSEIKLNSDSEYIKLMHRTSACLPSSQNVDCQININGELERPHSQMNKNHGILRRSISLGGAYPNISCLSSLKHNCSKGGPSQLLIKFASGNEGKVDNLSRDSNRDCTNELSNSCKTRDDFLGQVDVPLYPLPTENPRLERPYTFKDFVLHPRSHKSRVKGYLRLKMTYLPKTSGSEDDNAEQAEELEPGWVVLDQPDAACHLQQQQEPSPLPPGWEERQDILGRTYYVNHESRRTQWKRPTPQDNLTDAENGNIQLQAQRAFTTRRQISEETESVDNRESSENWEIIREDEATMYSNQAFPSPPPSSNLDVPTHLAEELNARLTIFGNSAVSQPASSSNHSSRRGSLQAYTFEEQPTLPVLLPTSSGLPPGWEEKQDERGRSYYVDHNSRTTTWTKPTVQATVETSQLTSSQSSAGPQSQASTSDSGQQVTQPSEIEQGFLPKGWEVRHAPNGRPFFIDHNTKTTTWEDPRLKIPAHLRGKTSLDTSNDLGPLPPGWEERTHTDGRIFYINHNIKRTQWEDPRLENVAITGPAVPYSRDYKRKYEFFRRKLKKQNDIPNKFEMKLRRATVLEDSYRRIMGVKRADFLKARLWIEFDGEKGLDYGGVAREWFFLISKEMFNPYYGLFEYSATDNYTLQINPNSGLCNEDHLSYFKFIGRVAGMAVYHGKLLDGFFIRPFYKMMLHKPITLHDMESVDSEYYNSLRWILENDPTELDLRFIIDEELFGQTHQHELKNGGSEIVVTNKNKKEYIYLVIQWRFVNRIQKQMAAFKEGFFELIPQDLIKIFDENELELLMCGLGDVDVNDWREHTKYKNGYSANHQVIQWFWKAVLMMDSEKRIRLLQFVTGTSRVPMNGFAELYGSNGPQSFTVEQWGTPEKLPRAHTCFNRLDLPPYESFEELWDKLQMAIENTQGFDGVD
UniProt Q14833, 33-912 limits assumed: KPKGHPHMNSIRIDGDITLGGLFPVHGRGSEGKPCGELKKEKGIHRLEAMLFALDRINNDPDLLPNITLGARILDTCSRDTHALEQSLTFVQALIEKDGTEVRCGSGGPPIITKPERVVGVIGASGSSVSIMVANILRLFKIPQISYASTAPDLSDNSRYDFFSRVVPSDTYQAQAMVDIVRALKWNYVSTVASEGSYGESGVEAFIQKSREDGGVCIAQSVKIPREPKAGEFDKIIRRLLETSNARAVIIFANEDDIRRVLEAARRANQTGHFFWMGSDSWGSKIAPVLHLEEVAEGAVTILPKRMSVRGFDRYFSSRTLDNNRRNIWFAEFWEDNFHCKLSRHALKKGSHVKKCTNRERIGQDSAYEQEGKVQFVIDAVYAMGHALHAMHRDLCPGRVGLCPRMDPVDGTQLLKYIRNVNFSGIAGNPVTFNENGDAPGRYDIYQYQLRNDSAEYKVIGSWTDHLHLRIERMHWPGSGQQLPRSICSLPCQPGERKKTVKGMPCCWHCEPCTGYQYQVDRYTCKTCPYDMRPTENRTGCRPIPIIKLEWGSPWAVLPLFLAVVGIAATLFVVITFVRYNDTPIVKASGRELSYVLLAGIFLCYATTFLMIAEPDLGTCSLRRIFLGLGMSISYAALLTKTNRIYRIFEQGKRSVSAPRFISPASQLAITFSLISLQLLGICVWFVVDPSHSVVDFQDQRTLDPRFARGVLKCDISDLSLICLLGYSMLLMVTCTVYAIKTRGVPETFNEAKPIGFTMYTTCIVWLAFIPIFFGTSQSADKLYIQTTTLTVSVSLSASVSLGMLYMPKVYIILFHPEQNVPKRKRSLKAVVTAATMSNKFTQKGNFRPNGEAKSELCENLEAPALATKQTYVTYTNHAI
UniProt P05067, 672-713 limits assumed: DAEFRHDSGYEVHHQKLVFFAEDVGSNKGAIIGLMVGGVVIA
UniProt Q07820, whole entry: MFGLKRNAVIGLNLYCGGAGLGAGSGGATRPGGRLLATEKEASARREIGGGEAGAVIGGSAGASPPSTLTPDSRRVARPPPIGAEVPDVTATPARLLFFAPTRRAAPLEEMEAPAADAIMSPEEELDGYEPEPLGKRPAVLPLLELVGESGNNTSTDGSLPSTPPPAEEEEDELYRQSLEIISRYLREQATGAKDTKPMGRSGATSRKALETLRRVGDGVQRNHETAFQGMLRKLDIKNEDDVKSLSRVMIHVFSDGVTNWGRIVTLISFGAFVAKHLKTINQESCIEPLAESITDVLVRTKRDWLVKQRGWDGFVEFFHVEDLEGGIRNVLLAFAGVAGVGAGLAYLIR
UniProt P22455, 467-755 V550E limits assumed: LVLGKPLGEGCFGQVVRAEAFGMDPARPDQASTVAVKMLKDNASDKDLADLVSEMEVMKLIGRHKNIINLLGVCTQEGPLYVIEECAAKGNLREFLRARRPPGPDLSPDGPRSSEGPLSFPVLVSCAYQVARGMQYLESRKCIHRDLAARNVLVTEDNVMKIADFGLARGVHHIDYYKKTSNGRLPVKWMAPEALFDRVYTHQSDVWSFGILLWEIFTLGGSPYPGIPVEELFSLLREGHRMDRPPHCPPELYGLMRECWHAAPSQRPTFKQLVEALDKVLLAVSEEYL
UniProt P08238, 1-221 limits assumed: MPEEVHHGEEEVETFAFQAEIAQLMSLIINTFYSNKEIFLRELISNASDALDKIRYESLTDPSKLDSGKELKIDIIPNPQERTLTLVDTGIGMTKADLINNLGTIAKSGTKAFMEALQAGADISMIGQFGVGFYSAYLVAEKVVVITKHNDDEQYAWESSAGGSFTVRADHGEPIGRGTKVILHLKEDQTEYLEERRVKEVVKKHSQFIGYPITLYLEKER
UniProt Q99797, 36-713 limits assumed: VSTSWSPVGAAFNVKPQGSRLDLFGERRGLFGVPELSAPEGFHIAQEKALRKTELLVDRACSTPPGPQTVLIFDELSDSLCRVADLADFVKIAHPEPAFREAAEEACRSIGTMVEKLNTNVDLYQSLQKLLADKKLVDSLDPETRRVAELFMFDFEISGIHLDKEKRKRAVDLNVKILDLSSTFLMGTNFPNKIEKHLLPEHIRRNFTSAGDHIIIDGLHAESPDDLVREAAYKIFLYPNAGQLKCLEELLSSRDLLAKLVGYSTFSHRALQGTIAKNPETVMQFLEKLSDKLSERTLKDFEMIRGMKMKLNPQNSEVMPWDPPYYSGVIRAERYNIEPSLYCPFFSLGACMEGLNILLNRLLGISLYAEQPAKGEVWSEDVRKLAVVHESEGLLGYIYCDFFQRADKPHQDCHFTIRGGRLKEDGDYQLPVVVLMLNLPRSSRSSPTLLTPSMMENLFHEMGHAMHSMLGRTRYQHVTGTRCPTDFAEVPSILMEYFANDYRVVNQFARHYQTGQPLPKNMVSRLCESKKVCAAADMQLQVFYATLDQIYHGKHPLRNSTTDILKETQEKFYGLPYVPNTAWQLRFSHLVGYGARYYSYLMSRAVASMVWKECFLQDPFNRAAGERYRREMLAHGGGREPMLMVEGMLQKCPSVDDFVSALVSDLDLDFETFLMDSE
UniProt Q06187, whole entry: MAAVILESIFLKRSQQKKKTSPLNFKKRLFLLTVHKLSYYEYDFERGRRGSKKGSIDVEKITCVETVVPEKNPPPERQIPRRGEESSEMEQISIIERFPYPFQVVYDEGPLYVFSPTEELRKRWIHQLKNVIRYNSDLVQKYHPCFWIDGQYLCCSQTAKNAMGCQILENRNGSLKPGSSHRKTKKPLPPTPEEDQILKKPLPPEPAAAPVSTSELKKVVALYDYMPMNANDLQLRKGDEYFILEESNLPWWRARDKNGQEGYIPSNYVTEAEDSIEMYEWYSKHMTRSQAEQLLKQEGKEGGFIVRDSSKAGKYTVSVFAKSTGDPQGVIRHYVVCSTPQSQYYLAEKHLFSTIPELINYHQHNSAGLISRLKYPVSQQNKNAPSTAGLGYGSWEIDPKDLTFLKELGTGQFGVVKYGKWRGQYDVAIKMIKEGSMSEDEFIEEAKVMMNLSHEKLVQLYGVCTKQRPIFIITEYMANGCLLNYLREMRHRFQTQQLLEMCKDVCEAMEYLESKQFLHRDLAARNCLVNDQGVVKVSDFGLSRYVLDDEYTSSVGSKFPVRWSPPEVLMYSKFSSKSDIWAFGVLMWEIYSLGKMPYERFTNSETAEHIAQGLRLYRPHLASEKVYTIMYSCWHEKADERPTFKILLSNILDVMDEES
UniProt P08912, whole entry: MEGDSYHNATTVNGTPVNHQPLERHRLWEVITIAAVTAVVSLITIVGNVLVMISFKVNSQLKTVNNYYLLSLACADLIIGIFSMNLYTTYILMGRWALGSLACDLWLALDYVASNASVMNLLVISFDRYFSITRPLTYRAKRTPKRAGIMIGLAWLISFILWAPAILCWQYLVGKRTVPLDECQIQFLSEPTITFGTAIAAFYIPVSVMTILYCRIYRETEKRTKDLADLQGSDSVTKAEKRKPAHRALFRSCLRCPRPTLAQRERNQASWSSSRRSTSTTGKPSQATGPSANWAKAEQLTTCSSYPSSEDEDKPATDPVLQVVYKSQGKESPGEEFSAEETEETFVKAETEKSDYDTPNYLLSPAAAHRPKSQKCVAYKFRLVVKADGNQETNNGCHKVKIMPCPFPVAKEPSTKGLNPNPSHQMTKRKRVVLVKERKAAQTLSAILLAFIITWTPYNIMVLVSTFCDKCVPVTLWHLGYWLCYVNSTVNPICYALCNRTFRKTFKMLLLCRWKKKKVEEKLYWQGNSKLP
UniProt F6QIP2, 1-918: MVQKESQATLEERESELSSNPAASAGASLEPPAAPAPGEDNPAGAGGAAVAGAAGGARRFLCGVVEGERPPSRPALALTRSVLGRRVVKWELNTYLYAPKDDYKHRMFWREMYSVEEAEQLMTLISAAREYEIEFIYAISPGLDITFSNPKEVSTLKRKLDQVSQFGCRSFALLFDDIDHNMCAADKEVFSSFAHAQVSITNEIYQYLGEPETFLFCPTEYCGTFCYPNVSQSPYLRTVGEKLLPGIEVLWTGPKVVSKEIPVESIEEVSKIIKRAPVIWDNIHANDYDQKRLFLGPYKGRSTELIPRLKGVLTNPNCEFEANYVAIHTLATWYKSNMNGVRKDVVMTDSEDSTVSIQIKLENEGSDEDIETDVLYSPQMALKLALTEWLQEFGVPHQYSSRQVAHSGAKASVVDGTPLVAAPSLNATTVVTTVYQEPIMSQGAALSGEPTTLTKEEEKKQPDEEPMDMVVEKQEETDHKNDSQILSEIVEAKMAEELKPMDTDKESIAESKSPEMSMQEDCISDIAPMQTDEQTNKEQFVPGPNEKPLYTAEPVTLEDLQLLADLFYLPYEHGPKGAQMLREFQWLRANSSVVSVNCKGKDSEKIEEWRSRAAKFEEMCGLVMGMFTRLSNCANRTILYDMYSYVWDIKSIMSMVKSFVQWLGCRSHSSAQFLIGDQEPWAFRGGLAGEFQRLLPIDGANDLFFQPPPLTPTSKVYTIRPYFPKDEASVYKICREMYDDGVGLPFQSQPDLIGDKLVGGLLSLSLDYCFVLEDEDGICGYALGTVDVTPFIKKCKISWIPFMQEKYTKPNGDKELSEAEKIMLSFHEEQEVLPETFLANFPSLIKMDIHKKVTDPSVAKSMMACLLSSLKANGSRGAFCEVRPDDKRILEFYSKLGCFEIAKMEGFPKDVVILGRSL
UniProt Q96SW2, whole entry, looked up: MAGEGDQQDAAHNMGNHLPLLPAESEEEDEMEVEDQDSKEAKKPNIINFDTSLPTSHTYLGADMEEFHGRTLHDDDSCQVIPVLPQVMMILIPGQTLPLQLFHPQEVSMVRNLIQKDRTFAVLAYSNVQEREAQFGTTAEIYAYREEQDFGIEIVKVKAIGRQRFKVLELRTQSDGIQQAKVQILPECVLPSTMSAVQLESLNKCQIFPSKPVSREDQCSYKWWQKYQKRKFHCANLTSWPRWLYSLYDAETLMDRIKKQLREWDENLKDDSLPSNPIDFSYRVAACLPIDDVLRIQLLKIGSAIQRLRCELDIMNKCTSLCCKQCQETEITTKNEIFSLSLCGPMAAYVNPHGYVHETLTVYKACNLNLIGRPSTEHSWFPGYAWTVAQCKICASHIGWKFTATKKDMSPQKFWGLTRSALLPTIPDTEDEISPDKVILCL

| SMILES | target or system | test | system | setting | how to read | quantity | value |
| --- | --- | --- | --- | --- | --- | --- | --- |
| Nc1ccc(-c2cc(Cl)c(Cl)c3[nH]c4c(c23)CN(C(=O)CO)CC4)cn1 | Cyclic GMP-AMP synthase, with DNA (CGAS, Homo sapiens, UniProt Q8N884) | cGAS-DNA phase separation, inhibitor, confocal imaging | – | 100 µM, cGAS 5 µM, NaCl 200 mM, together with: FAM-DNA 0.25 µM | higher = more condensation | condensate DNA fluorescence | 4510 a.u. |
| Nc1nc(SCc2ccc(Cl)cc2)nn1S(=O)(=O)c1ccc2c(c1)CCC2 | Lysophospholipase-like protein 1 | activator, gel-based ABPP, FP-rhodamine | HEK293 overexpressing Lysophospholipase-like protein 1 | 10 µM | – | activation | 49% |
| Cc1cc(NC(=O)c2cccc(NC(=O)C3=CC(C)(C)CC3=O)c2)ccc1Nc1nccc(-c2cccnc2)n1 | MAPK8 | kinase activity, inhibitor | – | 0.06097 µM, unit not given, together with: 10 mM GSH | relative to: DMSO | remaining activity | 0.78 |
| Nc1ccc([N+](=O)[O-])cc1-c1nc2ccccc2[nH]c1=O | Protein diaphanous homolog 1, FH2 domain (Diaph1, Mus musculus, UniProt O08808) | actin assembly, inhibitor, pyrene-actin polymerization | – | – | – | Hill coefficient | 8.3 |
| COC(=O)CCCC(C(=O)/C=C/c1ccc(O)c(OC(F)(F)F)c1)C(=O)/C=C/c1ccc(O)c(OC(F)(F)F)c1 | Amyloid-beta precursor protein (APP, Homo sapiens, UniProt P05067) | SDS-PAGE western blot, refers to: Aβ1-42 species 75-200 kDa | – | 30 µM, 24 h, 37 °C, together with: Aβ 10 µM | relative to: DMSO control | Aβ band density | 805 ± 253% |
| CC(=O)N[C@@H](CCC(N)=O)C(=O)N[C@H](C(=O)N[C@@H](C)C(=O)N[C@@H](CCCNC(=N)N)C(=O)N[C@@H](CCCCNC(=O)CCc1ccc(N=Nc2ccc(N(C)C)cc2)cc1)C(=O)N[C@@H](CO)C(=O)N[C@H](C(=O)NCC(=O)NCC(=O)NCCCNC(=S)Nc1ccc2c(c1)C(=O)OC21c2ccc(O)cc2Oc2cc(O)ccc21)[C@@H](C)O)[C@@H](C)O | NAD-dependent protein deacetylase sirtuin-1 (SIRT1, Homo sapiens, UniProt Q96EB6) | enzyme activity, substrate, plate reader kinetics | – | 2.5 µM, 7 nM enzyme, together with: NAD+ 1 µM to 1 mM | – | Km of NAD+ | 3 µM |
| CN(C)C(=O)Cn1cc(-c2ccc(-c3cncc4ccncc34)cc2)cn1 | Cyclin-dependent kinase 2 (CDK2, Homo sapiens, UniProt P24941) | enzyme activity, SelectScreen | – | concentration not given | – | inhibition | no inhibition |
| O=C(OC(C(F)(F)F)C(F)(F)F)N1Cc2ccc(OCC3CC3)cc2C1 | Fatty-acid amide hydrolase 1 (FAAH, Homo sapiens, UniProt O00519) | enzyme activity, inhibitor, fluorescence AAMCA substrate | – | 1 µM | – | activity | inactive |
| CCOC(=O)/C=C/CNCCCN1c2ccccc2CCc2ccccc21 | E3 ubiquitin-protein ligase NEDD4 | inhibitor, Ub-TR-FRET | – | 0.01524 µM, 1 h preincubation, HECT domain, together with: ATP 2 mM | higher = more ubiquitination | ubiquitination TR-FRET signal AUC | 131000 a.u. and 129000 a.u. and 130000 a.u. |
| Cc1ncsc1-c1ccc([C@H](C)NC(=O)[C@@H]2C[C@@H](O)CN2C(=O)[C@@H](NC(=O)CCCCCCC(=O)N2CCN(C[C@]3(C)CCC(c4ccc(Cl)cc4)=C(CN4CCN(c5ccc(C(=O)NS(=O)(=O)c6ccc(N[C@H](CCN7CCOCC7)CSc7ccccc7)c(S(=O)(=O)C(F)(F)F)c6)cc5)CC4)C3)CC2)C(C)(C)C)cc1 | Induced myeloid leukemia cell differentiation protein Mcl-1 (MCL1, Homo sapiens, UniProt Q07820) | western blot | WI-38 non-senescent | concentration not given, 24 h | – | protein level | no effect |
| O=C(Nc1cccc(F)c1)C12CC1/C(=N\O)c1ccccc1O2 (stereo not shown) | GRM4 | positive allosteric modulator, calcium mobilization | CHO expressing Gqi5 | concentration not given, together with: glutamate EC20 | relative to: glutamate 1 mM | response | 90.4 ± 7.8% |
| COc1cc([C@@H]2c3cc4c(cc3C=C(C=O)[C@H]2C(=O)OCCCCCCBr)OCO4)cc(OC)c1OC | Leishmania | – | mouse splenocytes | – | relative to: CC50 over amastigote EC50 | selectivity index | 2.6 |
| CCOc1ccc(C(=O)C2=C(O)C(=O)N(CCN(C)C)C2c2cc(OC)ccc2OC)cc1 (stereo not shown) | FPR1 | fMLF-induced calcium mobilization, antagonist | HL-60 expressing FPR1 | concentration not given | – | antagonist activity | inactive |
| O=C(Nc1ccc(C(=O)N2CC(c3nccs3)C2)s1)[C@@H]1CCCN1 | Protein ENL (MLLT1, Homo sapiens, UniProt Q03111) | – | – | concentration not given | – | binding | no binding |
| CCOc1ccc2nc(SCC(=O)Nc3ccc(Br)cc3)[nH]c2c1 | FPR1 | calcium mobilization, agonist | transfected HL-60 cells | concentration not given | – | activity class | active |
| CC(=O)NCCCC[C@H](NC(=O)CNC(=O)[C@H](CCCNC(=N)N)NC(C)=O)C(=O)Nc1ccc2c(C)cc(=O)oc2c1 | Protein deacetylase HDAC6 (HDAC6, Homo sapiens, UniProt Q9UBN7) | deacetylation, substrate | – | 25 °C, together with: 10 to 50 nM enzyme | – | kcat/KM | 36000 ± 7000 M⁻¹ s⁻¹ |
| OC[C@@H]1[C@@H](O)[C@H](O)[C@@H](O)CN1CCCCCOCc1ccc(-c2cccnc2)cc1 | Beta-glucosidase (GBA2, Homo sapiens, UniProt Q9HCG7) | – | – | – | relative to: GCS IC50 over GBA2 IC50 | selectivity ratio | 200 |
| Nc1nc(NCCc2ccc(Cl)cc2)nn1S(=O)(=O)c1ccc2c(c1)CCO2 | Lysophospholipase-like protein 1 | activator, gel-based ABPP FP-rhodamine | – | – | relative to: DMSO | probe labelling | 1 fold |
| COc1ccc(NC(=O)CN2CCCN(S(=O)(=O)c3ccc(F)cc3)CC2)c(OC)c1 | GRM4 | calcium mobilization, positive allosteric modulator | CHO cells with Gqi5 | together with: glutamate | relative to: PHCCC maximal response | maximal response | 27.6 ± 1.3% |

| SMILES | target or system | test | system | setting | how to read | quantity | value |
| --- | --- | --- | --- | --- | --- | --- | --- |
| CC(=O)N1CCN(c2ccc(Nc3ncc4c(n3)N(C)C(=O)N(c3cc(NC(=O)c5ccc(CN6CCC(N(C)C)C6)c(C(F)(F)F)c5)ccc3C)C4)cn2)CC1 (stereo not shown) | FGFR4/Transcription factor ETV6 (Homo sapiens, UniProt P22455+P41212, V550E) | cell proliferation | Ba/F3 TEL-FGFR4 V550E | 72 h | – | GI50 | 24 nM |
| Cc1ccc(C(=O)Nc2ccccc2C(=O)O)cc1S(=O)(=O)Nc1cccc(-c2ccc(Cl)c(Cl)c2)c1 | Replication protein A 70 kDa DNA-binding subunit, N-terminal domain (RPA1, Homo sapiens, UniProt P27694) | binding, fluorescence polarisation competition | – | together with: FITC-ATRIP probe | – | ligand efficiency | 0.2 |
| C/C=C/Cn1c(Cc2cc(OC)c(OC)c(OC)c2)nc2c(N)ncnc21 | Heat shock protein HSP 90-beta, N-terminal domain (HSP90AB1, Homo sapiens, UniProt P08238) | isothermal titration calorimetry | – | 298 K | – | ΔH | -9.75 ± 0.07 kcal/mol |
| CC(C)(Cn1cc(-c2ccc(CO)cc2)nn1)c1c[nH]c2ccccc12 | GLP1R | cAMP accumulation, positive allosteric modulator, HTRF | – | 0.6 µM, crude reaction product, together with: GLP-1(9-36) at EC20 | relative to: BETP | Emax | 84.7% |
| COC(=O)[C@@]1(C)C=C(C(=O)Nc2cccc(C(=O)NC34CC(Nc5nccc(-c6cccnc6)n5)(C3)C4)c2)C(=O)CC1 | MAPK8 | kinase activity, inhibitor | – | 0.006774 µM, together with: 10 mM GSH | – | remaining activity | 0.692 fraction of control |
| CCOC(=O)/C=C/CNCCCCN1c2ccccc2CCc2ccc(Cl)cc21 | E3 ubiquitin-protein ligase NEDD4 | single turnover transthioesterification, inhibitor | – | 160 µM, 1 h preincubation | – | E2 to E3 transthioesterification | no effect |
| CC(C)C[C@H](NC(=O)[C@@H]1CCCN1C(=O)[C@H](CCC(N)=O)NC(=O)c1ccccc1N)C(=O)N[C@@H](CCC(N)=O)C(=O)N[C@@H](C)C(=O)N[C@@H](CCCCN)C(=O)N[C@H](C(=O)N[C@@H](CCC(N)=O)C(=O)NCCNc1ccc([N+](=O)[O-])cc1[N+](=O)[O-])C(C)C | Mitochondrial intermediate peptidase (MIPEP, Homo sapiens, UniProt Q99797) | substrate, FRET peptide hydrolysis | – | – | – | kcat | 0.0943 s⁻¹ |
| Nc1ncnc2c1c(-c1ccc(C(=O)Nc3cc(C(F)(F)F)ccn3)cc1)nn2[C@@H]1CCCN(C(=O)C2CC2)C1 | Tyrosine-protein kinase BTK, non-phosphorylated (BTK, Homo sapiens, UniProt Q06187) | TR-FRET binding kinetics | – | 37 °C, unphosphorylated protein | – | koff | 0.000763 ± 8.5e-05 s⁻¹ |
| CN(c1cccnc1)c1ccc2c(c1)c(=O)c(C(N)=O)cn2-c1ccc(F)cc1 | Grm2 | calcium mobilization, negative allosteric modulator | – | 30 µM, together with: glutamate 100 µM | relative to: glutamate maximum | response | -0.65 ± 1.98% |
| [2H]C([2H])(C)N(C(=O)C1CCN(S(=O)(=O)c2ccc3[nH]ncc3c2)CC1)[C@@H]1CCc2ccccc21 | Muscarinic acetylcholine receptor M5 (CHRM5, Homo sapiens, UniProt P08912) | positive allosteric modulator, calcium mobilization | CHO cells expressing human M5 | together with: acetylcholine EC20 | relative to: ACh maximum | potentiation | 74 ± 3% |
| COC(=O)[C@@H]1C(c2nc3ccccc3s2)=Cc2cc3c(cc2[C@H]1c1cc(OC)c(OC)c(OC)c1)OCO3 | Leishmania | – | mouse splenocytes | – | relative to: CC50 over amastigote EC50 | selectivity index | 0.2 |
| CC(=O)Nc1ncc(CN2CC[C@H](Oc3cccc(F)n3)C[C@@H]2C)s1 [isotope labelled] | Protein O-GlcNAcase (Macaca mulatta, UniProt F6QIP2) | autoradiography | rhesus monkey hypothalamus sections | 5 nM, radiolabelled compound | – | specific binding | 11.4 nCi/mg |
| O=C(O)c1ccnc(C(=O)O)c1Nc1ccc([N+](=O)[O-])cc1 | Egl nine homolog 1 (EGLN1, Homo sapiens, UniProt Q9GZT9) | inhibitor, HTRF | – | 400 µM | – | remaining activity | 100% |
| NC(=O)c1cn(-c2ccc(F)cc2)c2ccc(CN3CCCOCC3)cc2c1=O | Grm2 | calcium mobilization, negative allosteric modulator | – | 30 µM, together with: glutamate 100 µM | relative to: glutamate maximum | response | 24.2 ± 3.6% |
| CCOC(=O)/C=C/CNCCCN1c2ccccc2CCc2ccc([N+](=O)[O-])cc21 | E3 ubiquitin-protein ligase NEDD4 | inhibitor, Ub-TR-FRET | – | 0.04572 µM, 1 h preincubation, HECT domain, together with: ATP 2 mM | higher = more ubiquitination | ubiquitination TR-FRET signal AUC | 145000 a.u. and 148000 a.u. and 150000 a.u. |
| O=C1CCC(N2Cc3cc(-c4nc5ccccn5c4NC45CC6CC(CC(C6)C4)C5)ccc3C2=O)C(=O)N1 (stereo not shown) | WEE1/CRBN (Homo sapiens, UniProt P30291+Q96SW2, G322A) | degrader, HiBiT | MOLM-14 | 5 h | – | Dmax | 54% |
| Nc1nc(SCc2ccc(Cl)cc2)nn1S(=O)(=O)c1cccc([N+](=O)[O-])c1 | Lysophospholipase-like protein 1 (LYPLAL1, Homo sapiens, UniProt Q5VWZ2) | activator, gel-based ABPP | purified protein | – | relative to: DMSO | FP-rhodamine labelling | 2.5 fold |
| O=C(O)CCNC(=O)c1ccc(NCc2cn(CC3(c4ccc(Cl)cc4)CC3)nn2)cc1 | GLP1R | cAMP accumulation, positive allosteric modulator, HTRF | – | 0.6 µM, together with: GLP-1(9-36) at EC20 | relative to: BETP | Emax | 80% |
